Assay results collected from several papers.
Each line is one published result; not all experiments were run side by side. Several values in a cell are separate wells, animals, samples, runs or records. ± marks the error that the study gave.
HDAC11: Histone deacetylase 11 (HDAC11, Homo sapiens, UniProt Q96DB2)
MAOA: Amine oxidase [flavin-containing] A (MAOA, Homo sapiens, UniProt P21397)
DDR2: Discoidin domain-containing receptor 2 (DDR2, Homo sapiens, UniProt Q16832)
SIRT5: NAD-dependent protein deacylase sirtuin-5, mitochondrial (SIRT5, Homo sapiens, UniProt Q9NXA8)
CDK4: Cyclin-dependent kinase 4 (CDK4, Homo sapiens, UniProt P11802)
VKORC1: Vitamin K epoxide reductase complex subunit 1 (VKORC1, Homo sapiens, UniProt Q9BQB6)

| Compound | target | assay | test system | setting | IC50 |
| --- | --- | --- | --- | --- | --- |
| CNC(=O)c1ccc(-c2cc(Cl)cc(Cl)c2Cl)c(N)n1 | SCN9A (Homo sapiens, UniProt Q15858, S1445G) | ion current, inhibitor, patch clamp |  |  | 230 nM |
| Cc1cc(NC2CCN(C)CC2)ccc1-c1cc2c(N3CCC[C@H](C(=O)NCc4ccc(OC(F)(F)F)cc4)C3)ncnc2[nH]1 | MTOR (Homo sapiens, UniProt P42345) | enzyme activity, inhibitor, TR-FRET |  |  | > 8000 nM |
| CCCCCCN(O)C(=O)CCCCC[C@@H]1NC(=O)CCSCc2cccc(n2)CSCCNC(=O)[C@H](CCc2ccccc2)NC(=O)[C@H](CC)NC1=O | HDAC11 | enzyme activity, inhibitor, fluorescence |  |  | 500 nM |
| Cc1cc(O)c2c(c1)C(=O)c1cc(O)c(O)c(O)c1C2=O | MAOA | enzyme activity, inhibitor |  |  | 91400 nM |
| O=S(=O)(O)c1cc(O)c2ccc(Nc3ccc4c(O)cc(S(=O)(=O)O)cc4c3)cc2c1 | Trex1 (Mus musculus, UniProt Q91XB0) | enzyme activity, inhibitor |  |  | 3800 nM |
| N#Cc1ccc(Nc2nc(N)cc(Oc3ccc(-c4cccc(F)c4)cc3F)n2)cc1 | Gag-Pol polyprotein, reverse transcriptase (gag-pol, Human immunodeficiency virus 1, UniProt P03366) | enzyme activity, inhibitor |  |  | 120 nM |
| O=C(CN1CN(c2ccc(F)cc2)C2(CCN(C(=O)c3cnc4[nH]ncc4c3)CC2)C1=O)NCC(F)(F)F | DDR2 | ligand displacement |  |  | 86600 nM |
| Cc1nn(-c2cccc(N)c2)c(=O)c2cnc(Nc3ccc(N4CCNCC4)cc3)nc12 | MARK4 (Homo sapiens, UniProt Q96L34) | enzyme activity, inhibitor |  |  | > 10000 nM |
| N=C(N)NCCC[C@H](NC(=O)[C@H](CCCCNC(=S)NCCC(=O)O)NS(=O)(=O)c1cccc(F)c1)C(=O)NC1CCC1 | SIRT5 | inhibitor, fluorogenic |  | pre-incubation 24 h, with: NAD+ 500 µM | 103 ± 5 nM |
| CC(C)c1ccc(/C=C/C(=O)c2cccc(C(F)(F)F)c2)cc1 | MAOA | enzyme activity, inhibitor |  |  | > 40000 nM |
| Clc1cc(Cl)c2c(c1)[C@H](NCCCNc1nc3ncccc3[nH]1)CCN2 | MARS2 (Homo sapiens, UniProt Q96GW9) | enzyme activity, inhibitor |  |  | < 13 nM |
| O=C(CCc1ccc(CNC(C(=O)O)C2CCCCC2)cn1)NO (stereo not shown) | HDAC4 (Homo sapiens, UniProt P56524) | enzyme activity, inhibitor |  |  | > 10000 nM |
| COC(=O)CCCCCC(=O)NCc1ccc(Nc2ncc(F)c(-c3cc(F)c4nc(C)n(C(C)C)c4c3)n2)cc1 | CDK4 |  |  |  | 1.1 nM |
| O=C(CCC(=O)NC(CCCCNC(=S)NCCc1nnn[nH]1)C(=O)NC(Cc1c[nH]c2ccccc12)C(=O)NC1CCC1)NCCOCCOCCCCCCCl (stereo not shown) | SIRT5 | enzyme activity, inhibitor |  |  | 24 ± 2 nM |
| Clc1ccc(NN=C(c2ccccc2)c2ccccn2)nc1 | KDM4A (Homo sapiens, UniProt O75164) | enzyme activity, inhibitor, ELISA |  |  | 445 nM |
| CC1CCCN(C(=O)Cn2ncc3cccn3c2=O)C1 (stereo not shown) | VKORC1 | carboxylation, inhibitor, ELISA | HEK293 stably expressing | 24 h, with: vitamin K epoxide 5 µM | 22500 nM |

| Compound | target | assay | test system | setting | IC50 |
| --- | --- | --- | --- | --- | --- |
| Cc1ccc(C(F)(F)CNC(=O)c2cc(Cl)nnc2Oc2cccc(C(F)(F)F)c2)c(C)c1 | serine palmitoyltransferase (Botrytis cinerea, UniProt A0A384JAG3+A0A384JQT2) |  |  |  | 14 ± 2 nM |
| O=c1cc(-c2cccc(O)c2)oc2c1ccc1occc12 | Cyclin-dependent kinase 7, with cyclin H (CDK7, Homo sapiens, UniProt P50613) | enzyme activity, inhibitor, ADP detection |  |  | 933 nM and 930 nM |
| COC(=O)CCCCCC(=O)Nc1ccc(Nc2ncc(F)c(-c3cc(F)c4nc(C)n(C(C)C)c4c3)n2)cc1 | CDK4 |  |  |  | 2.1 nM |
| Sc1ncnc2nc[nH]c12 | TAR DNA-binding protein 43, residues 102-269 (TARDBP, Homo sapiens, UniProt Q13148) | protein-RNA binding, inhibitor, fluorescence polarization |  | 40 nM protein, with: 10 nM RNA | 41700 ± 9600 nM |
| COC(=O)CCCCC(=O)NCc1ccc(Nc2ncc(F)c(-c3cc(F)c4nc(C)n(C(C)C)c4c3)n2)cc1 | CDK4 |  |  |  | 1 nM |
| O=C(Cn1ncc2cccn2c1=O)N1CCOCC1 | VKORC1 | carboxylation, inhibitor, ELISA | HEK293 stably expressing | 24 h, with: vitamin K epoxide 5 µM | 91600 nM |
| COC(=O)Cc1cc2c(cc1C(=O)c1ccccc1Cl)OCO2 | Gria2 (Rattus norvegicus, UniProt P19491) | ion current, patch clamp |  |  | 5020 nM |
| O=C1Nc2c(Br)cccc2/C1=C1/Nc2ccccc2C1=NO | Cyclin-dependent kinase 4, with cyclin D1 (CDK4, Homo sapiens, UniProt P11802) |  |  |  | > 10000 nM |
| Cc1ccc(-n2nc(C(=O)Nc3cccc(C(N)=O)c3)cc2-c2ccc(CC(C)C)cc2)cc1 | Genome polyprotein, NS2B-NS3 protease (dengue virus type 2, UniProt P29990) | enzyme activity |  | with: AMC substrate 50 µM | 6500 nM |
| CC1=CC(C)=[N+]2C1=C(CCCCc1cn(CC(=O)N3CCc4nc(NC(=O)[C@H]5CCN(C#N)C5)sc4C3)nn1)c1c(C)cc(C)n1[B-]2(F)F | UCHL1 (Homo sapiens, UniProt P09936) | enzyme activity, inhibitor, fluorescence |  | with preincubation | 1200 nM |
| O=C(CN1CN(c2ccccc2)C2(CCN(C(=O)c3ccc4[nH]ncc4c3)CC2)C1=O)N(CCO)CC(F)(F)F | DDR2 | ligand displacement |  |  | 2680 nM |
| Cc1nc2c(F)cc(-c3nc(Nc4ccc(C(=O)NCCCCCC(=O)NO)cc4)ncc3F)cc2n1C(C)C | CDK4 |  |  |  | 1.9 nM |
| CC(C)c1ccc(OS(=O)(=O)Oc2cncc(C(=O)NO)c2)cc1 | HDAC11 |  |  |  | 3760 nM |
| Cc1nc2c(F)cc(-c3nc(Nc4ccc(NC(=O)CCCCCC(=O)NO)cc4)ncc3F)cc2n1C(C)C | CDK4 |  |  |  | 1.2 nM |
| OCC1OC(n2cnc3c(NCc4ccc(Br)s4)ncnc32)C(O)C1O (stereo not shown) | ADORA2A (Homo sapiens, UniProt P29274) | ligand displacement, radioligand |  |  | 3030 nM |

Some of these lines once more:
| Compound | target | assay | test system | setting | IC50 |
| --- | --- | --- | --- | --- | --- |
| Sc1ncnc2nc[nH]c12 | TAR DNA-binding protein 43, residues 102-269 (TARDBP, Homo sapiens, UniProt Q13148) | protein-RNA binding, inhibitor, fluorescence polarization |  | 40 nM protein, with: 10 nM RNA | 41700 ± 9600 nM |
| COC(=O)CCCCC(=O)NCc1ccc(Nc2ncc(F)c(-c3cc(F)c4nc(C)n(C(C)C)c4c3)n2)cc1 | CDK4 |  |  |  | 1 nM |
| O=C(Cn1ncc2cccn2c1=O)N1CCOCC1 | VKORC1 | carboxylation, inhibitor, ELISA | HEK293 stably expressing | 24 h, with: vitamin K epoxide 5 µM | 91600 nM |
| COC(=O)Cc1cc2c(cc1C(=O)c1ccccc1Cl)OCO2 | Gria2 (Rattus norvegicus, UniProt P19491) | ion current, patch clamp |  |  | 5020 nM |
| O=C1Nc2c(Br)cccc2/C1=C1/Nc2ccccc2C1=NO | Cyclin-dependent kinase 4, with cyclin D1 (CDK4, Homo sapiens, UniProt P11802) |  |  |  | > 10000 nM |
